Published values from different studies.
Every numbered part comes from another study and shows a few of its results, in no order.
Chain of UniProt O15146 (whole entry, looked up): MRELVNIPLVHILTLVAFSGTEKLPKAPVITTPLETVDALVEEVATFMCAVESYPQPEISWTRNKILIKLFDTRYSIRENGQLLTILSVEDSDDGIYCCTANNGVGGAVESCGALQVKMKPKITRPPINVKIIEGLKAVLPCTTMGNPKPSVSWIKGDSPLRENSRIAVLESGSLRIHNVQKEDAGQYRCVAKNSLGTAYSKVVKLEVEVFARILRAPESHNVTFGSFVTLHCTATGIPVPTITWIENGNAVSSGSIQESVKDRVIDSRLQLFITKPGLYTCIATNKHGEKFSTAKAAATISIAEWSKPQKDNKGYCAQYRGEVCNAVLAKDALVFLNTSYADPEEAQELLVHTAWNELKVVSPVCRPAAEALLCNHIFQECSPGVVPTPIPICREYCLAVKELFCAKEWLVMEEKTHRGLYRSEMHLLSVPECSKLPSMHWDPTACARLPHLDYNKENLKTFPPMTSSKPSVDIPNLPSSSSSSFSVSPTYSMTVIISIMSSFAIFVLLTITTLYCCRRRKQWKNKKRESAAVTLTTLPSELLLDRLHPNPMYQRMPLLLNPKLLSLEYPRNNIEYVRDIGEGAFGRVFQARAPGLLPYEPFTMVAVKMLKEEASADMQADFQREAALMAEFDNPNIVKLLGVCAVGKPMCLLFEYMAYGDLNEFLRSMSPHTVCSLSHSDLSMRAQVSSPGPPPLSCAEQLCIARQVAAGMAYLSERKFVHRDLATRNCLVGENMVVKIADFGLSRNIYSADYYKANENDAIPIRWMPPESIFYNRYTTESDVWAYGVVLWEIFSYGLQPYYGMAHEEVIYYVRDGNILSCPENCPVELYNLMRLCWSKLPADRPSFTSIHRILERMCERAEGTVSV
Chain of UniProt Q8IWQ3 (whole entry, looked up): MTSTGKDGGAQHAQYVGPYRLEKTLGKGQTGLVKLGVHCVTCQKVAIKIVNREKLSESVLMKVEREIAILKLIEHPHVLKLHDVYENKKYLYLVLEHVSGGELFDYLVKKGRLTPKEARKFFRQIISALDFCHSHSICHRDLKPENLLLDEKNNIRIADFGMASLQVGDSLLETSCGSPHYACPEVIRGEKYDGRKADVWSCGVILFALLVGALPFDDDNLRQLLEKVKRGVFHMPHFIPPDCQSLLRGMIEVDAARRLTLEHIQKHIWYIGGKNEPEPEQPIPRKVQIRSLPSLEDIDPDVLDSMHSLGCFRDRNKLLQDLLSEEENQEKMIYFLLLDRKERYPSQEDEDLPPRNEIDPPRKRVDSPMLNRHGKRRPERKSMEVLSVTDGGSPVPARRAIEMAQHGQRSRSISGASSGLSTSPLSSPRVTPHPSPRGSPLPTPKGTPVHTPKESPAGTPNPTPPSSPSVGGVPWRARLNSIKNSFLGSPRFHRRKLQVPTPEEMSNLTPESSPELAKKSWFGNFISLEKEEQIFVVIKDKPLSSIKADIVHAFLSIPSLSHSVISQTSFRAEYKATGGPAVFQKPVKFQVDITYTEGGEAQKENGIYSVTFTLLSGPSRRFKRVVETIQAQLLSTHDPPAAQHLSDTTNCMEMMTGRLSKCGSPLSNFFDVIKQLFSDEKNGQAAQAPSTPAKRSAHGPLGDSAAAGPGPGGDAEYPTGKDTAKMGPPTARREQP
Chain of UniProt Q15759 (whole entry, looked up): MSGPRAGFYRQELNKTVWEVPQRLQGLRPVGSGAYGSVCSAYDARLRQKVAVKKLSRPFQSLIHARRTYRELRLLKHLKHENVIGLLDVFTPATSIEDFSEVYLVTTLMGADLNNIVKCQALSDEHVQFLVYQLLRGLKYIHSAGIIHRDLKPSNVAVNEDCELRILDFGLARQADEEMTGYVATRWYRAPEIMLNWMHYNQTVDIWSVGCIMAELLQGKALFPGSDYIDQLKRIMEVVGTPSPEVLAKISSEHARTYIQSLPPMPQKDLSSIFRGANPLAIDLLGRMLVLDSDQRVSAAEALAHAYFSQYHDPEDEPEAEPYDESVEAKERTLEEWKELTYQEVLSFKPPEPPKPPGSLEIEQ
Chain of UniProt O75385 (whole entry, looked up): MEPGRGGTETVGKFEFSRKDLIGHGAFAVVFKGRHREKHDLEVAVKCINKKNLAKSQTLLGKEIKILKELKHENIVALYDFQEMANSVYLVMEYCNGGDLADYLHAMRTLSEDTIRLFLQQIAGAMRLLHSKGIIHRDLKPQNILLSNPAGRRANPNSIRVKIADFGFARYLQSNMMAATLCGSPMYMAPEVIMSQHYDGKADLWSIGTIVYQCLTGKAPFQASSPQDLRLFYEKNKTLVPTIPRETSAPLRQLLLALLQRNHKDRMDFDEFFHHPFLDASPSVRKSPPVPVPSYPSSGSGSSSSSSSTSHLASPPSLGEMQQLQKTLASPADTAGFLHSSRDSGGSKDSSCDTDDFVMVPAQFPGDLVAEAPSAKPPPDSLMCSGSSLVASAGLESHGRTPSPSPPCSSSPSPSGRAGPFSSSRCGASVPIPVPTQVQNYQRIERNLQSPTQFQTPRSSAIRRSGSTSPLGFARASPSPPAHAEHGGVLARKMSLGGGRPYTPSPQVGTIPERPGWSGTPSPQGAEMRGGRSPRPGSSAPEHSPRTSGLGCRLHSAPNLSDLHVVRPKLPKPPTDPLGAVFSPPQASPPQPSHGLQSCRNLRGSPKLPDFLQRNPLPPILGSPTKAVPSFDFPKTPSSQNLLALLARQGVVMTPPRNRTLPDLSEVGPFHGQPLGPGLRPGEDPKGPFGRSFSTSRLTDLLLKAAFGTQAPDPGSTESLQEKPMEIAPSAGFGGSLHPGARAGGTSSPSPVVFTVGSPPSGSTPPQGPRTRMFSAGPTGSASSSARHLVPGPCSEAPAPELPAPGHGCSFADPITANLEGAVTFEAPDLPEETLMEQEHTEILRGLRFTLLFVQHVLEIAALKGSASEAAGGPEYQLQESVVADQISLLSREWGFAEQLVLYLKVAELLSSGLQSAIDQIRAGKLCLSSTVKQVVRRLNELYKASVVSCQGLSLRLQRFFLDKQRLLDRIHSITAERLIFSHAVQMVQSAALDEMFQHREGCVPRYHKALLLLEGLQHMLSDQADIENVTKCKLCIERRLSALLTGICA

Series 1 — cell line: Huh-7; tested at: 10 µM; time: 24 h
| Structure (SMILES) | viability [%] |
| --- | --- |
| CCOc1ccc(NC(C)=O)cc1 | 104 |
| c1ccc2c(CC3=NCCN3)cccc2c1 | 97.4 |
| CCC(=O)O[C@]1(C(=O)CCl)[C@@H](C)C[C@H]2[C@@H]3CCC4=CC(=O)C=C[C@]4(C)[C@@]3(F)[C@@H](O)C[C@@]21C | 97.9 |
| COc1cc([C@@H]2c3cc4c(cc3[C@@H](O[C@@H]3O[C@@H]5CO[C@@H](c6cccs6)O[C@H]5[C@H](O)[C@H]3O)[C@H]3COC(=O)[C@H]23)OCO4)cc(OC)c1O | 44.2 |

Series 2 — cell line: mouse MPNST tumor cells; technique: high-content nuclear imaging; refers to: cell number; tested at: 10 µM; time: 12 h; notes: mean of 2 replicates; relative to: plate mean; reading: higher = more cells
| Structure (SMILES) | nuclei count [z-score] |
| --- | --- |
| CCc1c(-c2ccccc2)c(-c2ccccc2)nn1-c1ccccc1-c1cccc(OCC(=O)O)c1 | 1.04 |
| O=C(Nc1cccc(Cl)c1)Nc1ncc(CCNc2ncnc3ccsc23)s1 | -1.69 |
| Cc1cc(C)c(S(=O)(=O)n2cc(C)cc2C)c(C)c1 | 0.305 |
| NCCCCCC(=O)O | 0.395 |
| C[N+](C)(CCOc1ccccc1)Cc1ccccc1.O=C([O-])c1cc2ccccc2cc1O | 0.045 |
| COc1cc(O)c(CC=C(C)C)c(O)c1C(=O)/C=C/c1ccc(O)cc1 | -3.99 |
| O=C(NCCCCN1CCN(c2cccc(Cl)c2Cl)CC1)c1ccc2c(c1)Cc1ccccc1-2 | 2.14 |

Series 3 — cell line: HaCaT; tested at: 100 µM; time: 36 h
| Structure (SMILES) | viability |
| --- | --- |
| O=C(Oc1ccccc1C(=O)O)c1ccccc1O | 82.6% |
| Cc1cn([C@H]2C=C[C@@H](CO)O2)c(=O)[nH]c1=O | 107% |
| CCCNC(C)C(=O)Nc1ccccc1C (centres unmarked) | 93.4% |
| Cc1ncc([N+](=O)[O-])n1CCO | 73.1% |

Series 4 — tested at: 1 µM
Structure (SMILES): CN1CCN(C(=O)c2ccc(NC(=O)Nc3ccc(N(C)c4ccnc(Nc5ccc(CS(C)(=O)=O)cc5)n4)cc3)cc2)CC1
| target | test | conditions | how to read | remaining binding |
| --- | --- | --- | --- | --- |
| ULK1 (Homo sapiens, UniProt O75385) | competitive binding panel |  | relative to: vehicle | 79% |
| MAPK11 (Homo sapiens, UniProt Q15759) | competitive binding | p38-beta |  | 100% |
| MUSK (Homo sapiens, UniProt O15146) | competitive binding panel |  | relative to: vehicle | 11% |
| BRSK2 (Homo sapiens, UniProt Q8IWQ3) | competitive binding panel |  | relative to: vehicle | 100% |

Series 5 — observed: binding; technique: radioligand binding; tested at: 10 µM
Target: Histamine H4 receptor (HRH4, Homo sapiens, UniProt Q9H3N8)
Chain of UniProt Q9H3N8 (whole entry, looked up): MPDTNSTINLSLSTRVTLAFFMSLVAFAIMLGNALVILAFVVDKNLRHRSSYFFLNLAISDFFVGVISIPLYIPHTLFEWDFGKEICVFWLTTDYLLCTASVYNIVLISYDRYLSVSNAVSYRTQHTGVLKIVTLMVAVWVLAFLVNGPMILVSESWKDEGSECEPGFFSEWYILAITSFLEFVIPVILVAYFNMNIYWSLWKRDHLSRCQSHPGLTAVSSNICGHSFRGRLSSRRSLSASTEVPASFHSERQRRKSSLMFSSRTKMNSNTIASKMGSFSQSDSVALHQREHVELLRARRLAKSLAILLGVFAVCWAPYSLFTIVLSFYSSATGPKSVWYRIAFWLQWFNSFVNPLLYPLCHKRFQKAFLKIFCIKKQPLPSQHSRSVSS
| SMILES | inhibition [%] |
| --- | --- |
| CCOC(=O)c1cc2cc(-c3cc(C(=O)NCc4ccc(C(=O)O)cc4)nn3C)ccc2[nH]1 | -1.52 |
| CCCOc1ccc([C@H]2[C@H](C(=O)O)[C@@H](c3ccc4c(c3)OCO4)CN2CC(=O)Nc2c(CC)cccc2CC)cc1 | 7.94 |
| O=C1c2ccc(Nc3ccc(F)cc3F)cc2CCc2ccc(OC[C@H](O)CO)cc21 | -15.3 |
| CS(=O)(=O)NCC[C@H](NC(=O)c1cncc2c1cnn2-c1ccc(F)cc1)c1ccnc(S(C)(=O)=O)c1 | -0.39 |
| Cc1c(NC(=O)c2cc(C(N)=O)nc3cc(F)ccc23)c(C(F)(F)F)nn1Cc1ccc(C(C)(C)C)cc1 | 13 |
| CC(=O)N1CCC(c2ccc(C(=O)NC(=N)N)cc2C(F)(F)F)CC1 | 7.11 |
| CC(C)(O)c1cncc(-c2nc3ccc(F)cc3n2C2CC2)c1 | -16.9 |
| COCc1nc2cnc3cc(-c4c(C)noc4C)c(OC[C@H]4CCNC4)cc3c2n1[C@H](C)c1ccccc1 | 29.3 |
| O=C(Nc1ccc(-n2nc(-c3cccnc3)cc2C(F)(F)F)cn1)c1ccc(-c2ccccc2)c(F)c1 | -9.32 |
| C[C@H](NC(=O)c1cnc2n1[C@](C)(Cc1ccc(C#N)cc1)C(=O)N2c1cc(Cl)c(F)c(Cl)c1)C(=O)NC1(c2ccccn2)CC1 | 9.55 |
| C[C@@]1(Cc2ccc(C#N)cc2)C(=O)N(c2cc(Cl)cc(Cl)c2)c2ncc(C(=O)NC3(c4nc(C5CCC5)no4)CC3)n21 | 27.6 |
| O=C1CCc2cc(Nc3cc(OC4CCOCC4)c([N+](=O)[O-])cc3Cl)ccc2N1 | 11.6 |
| O=C(Nc1cccnn1)N1CCC(=Cc2cccc(Oc3ccc(C(F)(F)F)cn3)c2)CC1 | 17.3 |
| C[C@@H]1CN(c2cc(-c3nn(C)c4ccc(OC5(C)CC5)cc34)ncn2)C[C@H](C)O1 | -16.2 |
| O=C(O)c1cc(-c2ccc(C3CCNCC3)cc2)c2ccc(-c3ccc(C(F)(F)F)cc3)cc2c1 | -6.7 |
| Cc1nc(C2CCN(C(=O)c3ccc(OC(F)(F)F)cc3N)CC2)c2ncc(N3CCN(C)CC3)cc2n1 | -5.28 |
| Cc1cc(-n2nc(Cc3cc(F)cc(C(F)(F)F)c3)nc2C)ccc1C(N)=O | 1.73 |
| O=C(Nc1cnc(Oc2ccc(F)cc2)nc1)N1CCc2ncccc2[C@@H]1c1ccc(F)cc1 | -4.41 |
| COc1cc(-c2cn(C3CCc4ccccc4N(CC(F)(F)F)C3=O)nn2)ccc1-n1ccc(C)n1 (centres unmarked) | 9.63 |
